Assay results collected from several papers.
Numbered parts are unrelated; each lists some results of a single study. Positions count from the first letter of the parent shown.
Sequence of UniProt Q9LQE8 (whole entry, looked up): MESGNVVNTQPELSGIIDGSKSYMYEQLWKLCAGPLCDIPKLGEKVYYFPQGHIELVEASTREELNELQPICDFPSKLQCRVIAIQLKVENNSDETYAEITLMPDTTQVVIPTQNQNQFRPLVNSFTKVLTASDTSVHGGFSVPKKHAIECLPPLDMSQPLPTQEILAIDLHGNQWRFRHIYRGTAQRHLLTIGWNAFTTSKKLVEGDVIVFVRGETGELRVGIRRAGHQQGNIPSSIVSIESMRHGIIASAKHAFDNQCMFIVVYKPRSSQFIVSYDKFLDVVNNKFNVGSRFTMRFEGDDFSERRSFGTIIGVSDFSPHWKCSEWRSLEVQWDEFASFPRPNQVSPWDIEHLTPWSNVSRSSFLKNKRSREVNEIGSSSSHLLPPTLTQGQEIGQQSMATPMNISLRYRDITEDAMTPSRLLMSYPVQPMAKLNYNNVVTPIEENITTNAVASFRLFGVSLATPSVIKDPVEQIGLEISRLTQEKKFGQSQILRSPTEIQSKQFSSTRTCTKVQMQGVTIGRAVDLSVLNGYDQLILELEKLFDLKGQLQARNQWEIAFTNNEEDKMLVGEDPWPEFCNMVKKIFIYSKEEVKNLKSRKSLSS
Sequence of UniProt O24408 (whole entry, looked up): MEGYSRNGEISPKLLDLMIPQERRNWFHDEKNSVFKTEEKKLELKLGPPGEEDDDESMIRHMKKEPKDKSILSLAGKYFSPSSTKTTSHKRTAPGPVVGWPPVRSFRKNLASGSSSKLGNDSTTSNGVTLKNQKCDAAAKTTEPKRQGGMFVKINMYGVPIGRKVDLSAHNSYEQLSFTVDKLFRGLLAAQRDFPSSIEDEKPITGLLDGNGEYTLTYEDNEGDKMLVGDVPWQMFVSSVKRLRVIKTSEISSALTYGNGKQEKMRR
Sequence of UniProt O24410 (whole entry, looked up): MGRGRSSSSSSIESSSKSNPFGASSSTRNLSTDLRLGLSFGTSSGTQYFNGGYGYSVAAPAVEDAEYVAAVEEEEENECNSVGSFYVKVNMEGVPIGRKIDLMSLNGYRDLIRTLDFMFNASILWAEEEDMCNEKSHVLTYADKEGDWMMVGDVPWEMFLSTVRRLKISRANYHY
Sequence of UniProt Q38828 (whole entry, looked up): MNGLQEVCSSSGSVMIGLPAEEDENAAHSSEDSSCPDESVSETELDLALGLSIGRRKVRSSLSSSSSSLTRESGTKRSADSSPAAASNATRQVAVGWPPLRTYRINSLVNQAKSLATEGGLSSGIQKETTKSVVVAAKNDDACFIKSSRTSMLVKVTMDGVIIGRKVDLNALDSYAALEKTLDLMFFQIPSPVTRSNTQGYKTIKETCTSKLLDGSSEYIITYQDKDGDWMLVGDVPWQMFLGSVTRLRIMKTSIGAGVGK
Sequence of UniProt O23661 (whole entry, looked up): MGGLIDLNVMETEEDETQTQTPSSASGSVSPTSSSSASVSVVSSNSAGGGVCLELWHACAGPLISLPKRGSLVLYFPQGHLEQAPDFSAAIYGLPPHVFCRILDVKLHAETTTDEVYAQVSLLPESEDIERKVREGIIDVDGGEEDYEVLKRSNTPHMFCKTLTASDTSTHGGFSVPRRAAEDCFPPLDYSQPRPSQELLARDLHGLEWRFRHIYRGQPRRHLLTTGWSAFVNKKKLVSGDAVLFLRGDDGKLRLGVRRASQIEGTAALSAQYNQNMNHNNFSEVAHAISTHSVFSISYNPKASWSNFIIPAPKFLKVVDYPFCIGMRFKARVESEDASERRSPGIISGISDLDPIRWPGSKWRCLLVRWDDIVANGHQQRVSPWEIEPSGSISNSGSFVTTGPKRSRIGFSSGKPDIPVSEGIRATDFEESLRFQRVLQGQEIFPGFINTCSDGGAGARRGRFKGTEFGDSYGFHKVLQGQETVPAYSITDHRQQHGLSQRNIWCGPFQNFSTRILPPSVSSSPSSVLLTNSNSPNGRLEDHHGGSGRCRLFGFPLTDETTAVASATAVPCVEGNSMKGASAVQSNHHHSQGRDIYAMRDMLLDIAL
Sequence of UniProt Q6ZN16 (whole entry, looked up): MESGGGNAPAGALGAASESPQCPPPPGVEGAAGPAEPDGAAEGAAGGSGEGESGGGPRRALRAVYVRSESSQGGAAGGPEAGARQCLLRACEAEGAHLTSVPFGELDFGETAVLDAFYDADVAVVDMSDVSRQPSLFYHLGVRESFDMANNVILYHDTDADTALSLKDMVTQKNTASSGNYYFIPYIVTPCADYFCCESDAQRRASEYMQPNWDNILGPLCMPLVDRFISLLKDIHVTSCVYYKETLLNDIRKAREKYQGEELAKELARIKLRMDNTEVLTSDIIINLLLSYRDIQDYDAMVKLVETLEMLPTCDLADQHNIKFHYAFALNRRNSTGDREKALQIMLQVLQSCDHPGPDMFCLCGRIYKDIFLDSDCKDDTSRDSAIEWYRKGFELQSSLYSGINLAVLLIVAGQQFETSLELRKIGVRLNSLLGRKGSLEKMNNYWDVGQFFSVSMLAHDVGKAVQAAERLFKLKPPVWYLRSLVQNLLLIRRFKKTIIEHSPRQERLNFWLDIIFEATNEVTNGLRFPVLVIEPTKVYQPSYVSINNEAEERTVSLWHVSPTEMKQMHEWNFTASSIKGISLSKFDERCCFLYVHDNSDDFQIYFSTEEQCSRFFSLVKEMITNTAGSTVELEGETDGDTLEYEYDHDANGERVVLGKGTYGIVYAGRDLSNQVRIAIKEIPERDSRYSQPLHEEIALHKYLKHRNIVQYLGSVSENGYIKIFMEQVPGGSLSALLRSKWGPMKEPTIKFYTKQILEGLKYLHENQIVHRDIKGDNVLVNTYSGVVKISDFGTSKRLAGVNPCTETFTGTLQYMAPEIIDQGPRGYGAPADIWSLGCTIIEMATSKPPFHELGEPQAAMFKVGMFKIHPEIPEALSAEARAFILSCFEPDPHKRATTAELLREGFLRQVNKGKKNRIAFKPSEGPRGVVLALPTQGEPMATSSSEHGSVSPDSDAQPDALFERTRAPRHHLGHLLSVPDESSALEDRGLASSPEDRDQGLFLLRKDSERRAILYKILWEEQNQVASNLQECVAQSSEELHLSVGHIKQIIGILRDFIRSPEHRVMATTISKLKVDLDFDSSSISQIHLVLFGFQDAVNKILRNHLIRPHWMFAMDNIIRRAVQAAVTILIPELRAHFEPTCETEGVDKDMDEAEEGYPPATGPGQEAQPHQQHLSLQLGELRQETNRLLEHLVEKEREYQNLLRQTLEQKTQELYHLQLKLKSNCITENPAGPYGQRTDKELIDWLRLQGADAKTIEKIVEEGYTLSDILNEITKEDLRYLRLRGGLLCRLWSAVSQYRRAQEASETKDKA

Block 1 — technique: RNA Bind-n-Seq; molecule type: RNA; sample: in vitro; tested at: 90 pmol; notes: 4-mer, random 30-nt RNA, single round; baseline: input library; direction: higher = stronger binding
Target: Eukaryotic initiation factor 4A-I (EIF4A1, Homo sapiens, UniProt P60842, residues 1-406, full length assumed)
Sequence of UniProt P60842 (whole entry, looked up): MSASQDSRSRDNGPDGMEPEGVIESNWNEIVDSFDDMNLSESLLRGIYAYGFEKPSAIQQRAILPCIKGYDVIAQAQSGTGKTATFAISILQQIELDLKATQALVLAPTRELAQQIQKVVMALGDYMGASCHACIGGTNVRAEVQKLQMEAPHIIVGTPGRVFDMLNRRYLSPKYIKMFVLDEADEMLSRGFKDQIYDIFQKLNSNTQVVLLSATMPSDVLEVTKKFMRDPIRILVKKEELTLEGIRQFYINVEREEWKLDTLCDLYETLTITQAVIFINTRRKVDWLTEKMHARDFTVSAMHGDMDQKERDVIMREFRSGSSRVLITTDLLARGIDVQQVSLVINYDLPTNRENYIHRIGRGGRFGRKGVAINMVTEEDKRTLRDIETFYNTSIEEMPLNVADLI
Added: 3 µM iPr-DMDA-PatA, 2 mM ADP, 2 mM phosphate
| Sequence | 4-mer enrichment |
| --- | --- |
| UAUG | 1.04 fold |
| AUUA | 1.37 fold |
| GCAG | 0.789 fold |
| GCGC | 0.652 fold |
| GUGG | 0.708 fold |
| UCUA | 1.14 fold |
| GAUA | 1.3 fold |
| AGUC | 1.08 fold |

Block 2 — Variant: P83V; technique: DHFR PCA, deep sequencing; sample: yeast; baseline: wild-type fitted maximum; direction: higher = stronger binding
Target: ABI1, truncated, D143A, DHFR fusion (Arabidopsis thaliana)
Notes: methotrexate growth selection, single substitutions
Starting sequence: PYL1, truncated, DHFR fusion (Arabidopsis thaliana); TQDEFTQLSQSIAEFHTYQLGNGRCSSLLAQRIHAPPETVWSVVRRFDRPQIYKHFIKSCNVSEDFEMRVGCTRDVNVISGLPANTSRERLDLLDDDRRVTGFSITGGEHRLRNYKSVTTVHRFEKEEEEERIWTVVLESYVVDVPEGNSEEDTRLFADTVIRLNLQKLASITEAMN
| setting | relative binding score [%] |
| --- | --- |
| added: (+)-ABA 17 µM | -0.0617 |
| added: (+)-ABA 58 µM | 5.59 |
| added: (+)-ABA 0.39 µM | 0.0338 |
| added: (+)-ABA 0.032 µM | 5.67 |
| added: (+)-ABA 4.8 µM | -13.4 |
| added: (+)-ABA 710 µM | 26.9 |

Block 3 — technique: two-hybrid; direction: higher = firmer interaction
Substance: IAA8 (Arabidopsis thaliana, UniProt Q38826)
Sequence of UniProt Q38826 (whole entry, looked up): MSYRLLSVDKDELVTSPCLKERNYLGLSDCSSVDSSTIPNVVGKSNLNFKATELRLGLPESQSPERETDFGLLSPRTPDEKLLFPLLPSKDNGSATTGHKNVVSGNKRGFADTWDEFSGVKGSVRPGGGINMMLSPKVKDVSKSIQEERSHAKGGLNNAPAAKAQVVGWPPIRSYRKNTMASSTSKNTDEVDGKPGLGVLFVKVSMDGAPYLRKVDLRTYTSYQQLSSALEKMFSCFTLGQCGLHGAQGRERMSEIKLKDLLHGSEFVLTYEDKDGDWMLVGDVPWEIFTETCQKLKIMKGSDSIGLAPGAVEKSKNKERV
| partner | setting | scale | positive tests |
| --- | --- | --- | --- |
| ARF14 497-605 (Arabidopsis thaliana, UniProt Q9LQE8) |  | baseline: out of 2 tests | 0 |
| IAA18 (Arabidopsis thaliana, UniProt O24408) |  | baseline: out of 4 tests | 4 |
| ETT (Arabidopsis thaliana, UniProt O23661) |  | baseline: out of 2 tests | 0 |
| IAA20 (Arabidopsis thaliana, UniProt O24410) | weak activation fusion | baseline: out of 4 tests | 2 |
| IAA10 (Arabidopsis thaliana, UniProt Q38828) |  | baseline: out of 4 tests | 2 |

Other studies, line by line
| SMILES | target | assay | setting | quantity | value |
| --- | --- | --- | --- | --- | --- |
| CS(=O)(=O)NCC[C@H](NC(=O)c1cncc2c1cnn2-c1ccc(F)cc1)c1ccnc(S(C)(=O)=O)c1 | Mitogen-activated protein kinase kinase kinase 15 (MAP3K15, Homo sapiens, UniProt Q6ZN16) | cell-free assay, competition with immobilised ligand | 1 µM | remaining binding | 100% |

A few entries again (block 3):
| partner | setting | scale | positive tests |
| --- | --- | --- | --- |
| IAA18 (Arabidopsis thaliana, UniProt O24408) |  | baseline: out of 4 tests | 4 |
| IAA10 (Arabidopsis thaliana, UniProt Q38828) |  | baseline: out of 4 tests | 2 |
| ETT (Arabidopsis thaliana, UniProt O23661) |  | baseline: out of 2 tests | 0 |
